Measurements of several laboratories.
Every numbered part comes from another study and shows a few of its results, in no order.

Set 1 — technique: protein binding microarray; molecule type: double-stranded DNA, one strand shown; sample: in vitro; concentration: not given; reference: not given; reading: higher = stronger binding
Target: Histone acetyltransferase KAT6A, both winged helices, GST fusion (KAT6A, Homo sapiens, UniProt Q92794, residues 1-181)
Setting: 8-mer, flanks averaged, mean of 2 arrays, mostly near background
Target sequence (chain): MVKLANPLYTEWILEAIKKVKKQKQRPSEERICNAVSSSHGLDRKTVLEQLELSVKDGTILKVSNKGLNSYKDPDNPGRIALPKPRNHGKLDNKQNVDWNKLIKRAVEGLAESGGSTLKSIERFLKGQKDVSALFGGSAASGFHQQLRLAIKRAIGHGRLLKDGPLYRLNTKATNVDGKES
Strand	E-score
TATCTTCA	-0.0303
AAATGCCC	-0.159
CCCAGGAA	-0.167
AGAGACTA	-0.0669
AATCTTAT	-0.0295
AGGTCGAT	0.0261
TACCCGGA	0.118
ACTGGAGC	-0.0233
CGCTCTGA	0.2
ATTTTGCA	-0.23
AGATAACC	-0.0614
AGACGTGA	0.0491
ATTTGGCA	-0.219
CCCTGAAC	-0.0402

Set 2 — technique: RNA Bind-n-Seq; molecule type: RNA; sample: in vitro; concentration: 365 nM; reference: no-protein control; reading: higher = stronger binding
Target: RNA binding protein fox-1 homolog 2, RRM domain, GST-SBP tag (RBFOX2, Homo sapiens, UniProt O43251-10, residues 100-194)
Setting: natural RNA segment, single round, ends assumed
Constant ends, left off below: GGGAGUUCUACAGUCCGACGAUC … UGGAAUUCUCGGGUGCCAA
Construct (chain): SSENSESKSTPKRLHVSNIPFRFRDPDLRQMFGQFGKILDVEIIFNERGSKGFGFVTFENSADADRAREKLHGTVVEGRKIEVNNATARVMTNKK
Strand	RBNS enrichment (R)
GAAACGUGUCCCUGGCCCAUAUUAAUCCCUCGUGUGUCCAUAAUUAGGGUCCACGCCCAUGUACCUGAAACAUUUGGAAGCCCCAUAAUUGUUCUAGUUAGAAAGGGUUC	0.229
ACCGGGGUUUCUACUCCUGUACCCUCUGCAGGUGGAGAGAGAGAAGCUGGGCCCAGUUUGGCCAUGCCUGCUGGCACAGACGCCUUAACUGUGUGGAUGACUGUGUGACU	0.291
UAGAACAUCAGGAUGUUCUUGUAUUGGAUAUAGUAUCUAGUAUUCAAAAAUGCCUGCAUCUCUUAUUUAUUGUAAGUUUUUAAAUGUAUAAAUUGUCUUAUAUUUCUUAA	0.851
UUAACCCUAAUUUCUCUCUGACCCUAAAGGAGCUGCUGGCCCUAGAAGGUUGGGAUCAAUCUUGUCAAGUCUAUGUUACACUUACUUUUACAAAAAAAAGUAUAUAUACA	0.255
CUAGUAAGGGUUUUGAUCACACCAAGUUCUUUGUAUUGAGAAGUCUAGGGCAGAGCUCUGGGGGAUUGUUAUUUUACAUUACCUGGCCUAGAGUAGCAUAUUAGACAACA	0.498
AGGAUGGAGCUAGAAAGCUCAGAGUGGGCCAGAGCAGGGGUGUGACACUUGCAAAGACAGGGCUCUGACUCUGAUCCCUCCCAGGGAGCCUCCGACACCCAUCCCACUCC	0.448
GGCCCCAGCGGCCUGGGCGUUGGCUGAGCCGACGCUGGGGCUUCCAGAAGGCCCGGGGGUCUCCGAGGUGCCGGUUAGGAGUUUGAACCCCCCCCACUCUGCAGAGGGAA	0.326
UGGCAUUUUCCCCAGAAUUGUGAGCCAAAGCCUAUAGUAAUUGCAGACAGCAAAUGAUUCCGGAUCUCUAAAAGGCUCUCUCAGAUGAAAAGGGAGUAAAGGAAAAAAGA	0.419
GAUAAUUCUGAGAUCAUGGGUGAGGGGUGGUGCAUGUUGAGAUUUAAAUUGGCAUAAAGCUGCAUACUUUUUGUCUAGCUGUUUGAUUUCAUUUUUUAAUAUAGUAUGCC	1.6
CUAUAUCAACUUUGGUAUCUACUUUCCGUUUACUUCAAUCCUUGCCUUUUUGGUCAUUGUUAUAAUGCCAGCUUUAGGACAGAAAGAAUUAUAAGAAAACCAGCAUAAUA	0.364
ACAUCUCUUCCUUUUCCAGAUCCCAUGCUUUGAAAAAUAUUUAUAGACAGUUCCAGGUCUCAGCUUCCUGUCCUCUAGUUCUGCUGUUCGGGCAUAAAAUCUUUAUCUCC	0.579
CUGUUAAAUUGAACGUAAAUAACUUUGGAAAACAGUUUUGACACUAGAACAAGGUCGCUUCUCUUUUCCUCUUCUCUCCCAACCUGUUAACCUAGUGCUAGAUAGUCAGC	0.457

Set 3 — technique: RNA Bind-n-Seq; molecule type: RNA; sample: in vitro; concentration: not given; reference: input RNA pool; reading: higher = stronger binding
Target: RING finger protein unkempt homolog, zinc fingers 1-6, GST-SBP tag (UNK, Homo sapiens, UniProt Q9C0B0, residues 30-357)
Sequence of UniProt Q9C0B0 (30-357, looked up): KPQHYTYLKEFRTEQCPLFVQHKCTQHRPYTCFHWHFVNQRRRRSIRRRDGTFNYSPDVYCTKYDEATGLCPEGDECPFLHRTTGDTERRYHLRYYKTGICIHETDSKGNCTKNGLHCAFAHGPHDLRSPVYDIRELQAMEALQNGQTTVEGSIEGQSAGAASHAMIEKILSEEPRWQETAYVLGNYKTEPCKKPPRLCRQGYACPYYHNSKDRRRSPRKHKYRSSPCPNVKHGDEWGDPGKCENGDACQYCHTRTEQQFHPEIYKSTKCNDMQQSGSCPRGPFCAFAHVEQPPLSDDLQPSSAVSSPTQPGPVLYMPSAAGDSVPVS
Setting: RNA with constant flanks, human-mouse chimeric sites, ends assumed
Constant ends, left off below: GGGAGUUCUACAGUCCGACGAUC … CAACAGAGGAUUGAGCAUCA
Strand	bound/input enrichment
UAAAUUAGCCAGCACCAUUUCUGUUUCUCCCUGGGCUGCGGAAAGCCAGAAGAUUUUAUCUAGCUUAUACAAGGCUGCUGGUGUUCCCUCUUUUUUUCCCUCUCUCUGUUUUUGGCUGCA	1.35 ratio
AGCACAACCCCAGCAAAGCUAAGAAAUCCUUGCACAAGUGAACAGAACUGCACCAGCCCAUUUAGCUACAAAAAUGUGCUUAGUCUUACUGACAGAGGAGAGUUUUUCAAUGAACUUGUU	1.44 ratio
UUAAUCCCCUUCGUUGCUCCCCCACUUCUCAUGGUAAUAACAAAGUCUUAUAUCCCCGUCCUAGCUUUCACUCAGAUGGCUUAUGGAGCCAGUUUCCUAGCUUUCUUGGGAGGGAUCAGA	0.346 ratio
UGUGCAUAUGAUGCUUGAGAUGGUUUUUGCAAAAGCAGAAAUCGCUGCAAGGUAAUCACAAUAGAUACAAGCGGUAUUUUAAACCUUUGAAAUAAAUGGAUGUAACUGUACCUUGGUACA	0.27 ratio
GGAAGUACAAUGAUGGAGAUUGAUGGUGAUAAAGGCAAGCAGGGCGGGCCCACCUACUACAUAGACACCAAUGCCCUCCGCGUGCCCAGGGAGAACAUGGAGGCCAUUUCACCUCUAAAG	0.289 ratio
GAUCCACAGUGGUCUGAGGAGCAACUCAUUGCUGCAAAAUUCUGUUUUGCUGGCCUUGUUAUAGGGCAGACUGAAGUGGACAUCAUGAGUCAUGCUACACAAGCUAUAUUUGAAAUACUG	0.146 ratio
CUGAAAAACACAGAUAUCAAAGUUGUUGACUUUGGAAGUGCAACGUAUGACGACGAACAUCACAGUACUUUGGUGUCUACCCGGCACUACAGGGCUCCCGAGGUCAUUUUGGCUUUAGGU	0.155 ratio
GUAAUGGACGUUAAUACUGCUUUACAAGAGGUGCUGAAGACCGCCCUCAUCCACGAUGGCCUAGCACGUGGCAUACGCGAAGCUGCCAAAGCCUUAGACAAGCGCCAAGCCCAUCUGUGU	0.214 ratio
GAAACAUUUAAAUUUAAAGAAGCUGUUGUUUUAGGGAGUACGGACUUUCUAGAAGAUGAUAUAGAGAAAAUUGUAGAAGAACUGGGGAAAGAAUACAAGGGCAACGCCUACCAUCUGAUG	2.2 ratio
CAGCGCCGAGGCCGCGGUUUCCCCCUGGGUGUGCUGAGCAGCAGCCAUGGGCAUCAAAUUUUUAGAAGUUAUCAAACCUUUCUGUGCAGUUCUACCAGAAAUUCAGAAACCGGAAAGGAA	1.33 ratio
UUAAUCCCCUUUACUGCUCCCCCACUUCUCAUGGUAAUAACAAAGUCUUAUAUUCCCGUCCUAGCUUUCACUCAGAUGGCUUAUGGAGCCGGUUUCCUAGCUUUCUUGGGAGGGAUCAGA	0.413 ratio

Set 4 — cell line: yeast with cyclin D1-Cln2 chimera; read-out: cell growth; action: binder; technique: competitive growth deep sequencing; molecule type: peptide; concentration: concentration not given; setting: peptide tiling library; reading: direction not given
Sequence	growth enrichment score
FREFEVEKQTAEETGL	1.76
PAKRRLELGE	-0.125
DTERAHSTLDEDLERW	1.16
PARRRLRLSVDEVSSP	-0.864
ESSQLTVQAEFDMSAI	1.07
GQLVIPLDELTLDTSF	1.72
SCCKRKLVVGNGPEGP	-0.803
IVLICAKRSLCAAFSV	-0.974
NARRSLNFGGSTGT	0.101
PLRKAKRARLCSSSSS	-0.18
KPITLDTTDFQESFVT	1.14
DSDSDSEGGAAGGEAD	1.04
SAVPLILPQAPSGPSY	1.51
AIRKMREDRWAVIAKM	0.514
